Experimental data of several laboratories.
Each line is one published result; not all experiments were run side by side. ± gives the spread as reported.
Target: Cannabinoid receptor 2 (CNR2, Homo sapiens, UniProt P34972)
Chain of UniProt P34972 (whole entry, looked up): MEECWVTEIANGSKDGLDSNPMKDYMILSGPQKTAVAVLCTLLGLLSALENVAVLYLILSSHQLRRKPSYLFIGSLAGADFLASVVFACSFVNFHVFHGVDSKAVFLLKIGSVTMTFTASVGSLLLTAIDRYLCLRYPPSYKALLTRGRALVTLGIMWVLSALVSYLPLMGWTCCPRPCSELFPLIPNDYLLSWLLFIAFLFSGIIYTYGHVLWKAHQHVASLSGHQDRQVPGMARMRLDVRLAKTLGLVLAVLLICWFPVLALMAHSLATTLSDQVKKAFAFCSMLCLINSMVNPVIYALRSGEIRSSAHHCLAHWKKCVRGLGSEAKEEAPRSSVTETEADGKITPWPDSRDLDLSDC

CCCCCn1cc(C(=O)c2cccc3ccccc23)c2cc(O)ccc21 — Emax (agonist; CHO-hCB2 cell membranes; 10 µM): 38 ± 10.4 fmol/mg
CCCCCn1cc(C(=O)c2ccc3ccccc3c2)c2ccccc21 — Emax difference (Gαi1 engagement, agonist, BRET; relative to: CB1 minus CB2): ~30%
COC(=O)c1ccc2c(C=C3C(=O)C4CCN3CC4)cn(Cc3ccccc3)c2c1 — maximal inhibition (cAMP level; CHO expressing human CB2; together with: forskolin; negative means cAMP increase): -200 ± 8.6%
CC(O)CCn1cc(C(=O)c2cccc3ccccc23)c2ccccc21 (stereo not drawn) — Emax (agonist; CHO-hCB2 cell membranes; 10 µM): 48.2 ± 10.9 fmol/mg
CCOC(=O)[C@](CC)(CCCSCCOCCOCCNC(=O)c1ccc(-c2c3ccc(=N)c(S(=O)(=O)O)c-3oc3c(S(=O)(=O)O)c(N)ccc23)c(C(=O)O)c1)NC(=O)c1ccc(C2CC2)c(Cc2ccc(F)cc2)n1 — Emax (cAMP, agonist): 100%
COC1CC(=O)N(C)C=CCCCC(=O)N(C)C(C(C)C)C(=O)N(C)C(CC(C)C)C(=O)OC(C(C)C)CC(C)C1 (stereo not drawn) — inhibition (β-arrestin recruitment, antagonist; 20 µM): > 70%
CCOC(=O)C(CC)(CC)NC(=O)c1ccc(C2CC2)c(Cc2ccc(F)cc2)n1 — Emax (cAMP, agonist, TR-FRET; CHO): 102%
CCCCCn1cc(C(=O)c2cccc3ccccc23)c2ccccc21 — Emax (β-arrestin recruitment, agonist, BRET; HEK-293T): 75.1%
CC1=C[C@H]2c3c(O)cc(CCc4ccccc4)cc3OC(C)(C)[C@H]2CC1 — binding inhibition (10 µM): ≥ 90%
CCCCCn1cc(C(=O)c2ccc3c(c2)CC(C)(C)C3)c2ccccc21 — Emax (Gαi1 engagement, agonist, BRET; HEK293T; relative to: reference agonist): 75.3 ± 5.2%
CCCCn1cc(C(=O)c2cccc3ccccc23)c2cc(O)ccc21 — Emax (agonist; CHO-hCB2 cell membranes; 10 µM): 17.6 ± 5.7 fmol/mg
CCOC(=O)[C@](CC)(CCCSCCOCCOCCNc1ccc([N+](=O)[O-])c2nonc12)NC(=O)c1ccc(C2CC2)c(Cc2ccc(F)cc2)n1 — Emax (cAMP, agonist): 72%

For quick reference, copied from above:
CC(O)CCn1cc(C(=O)c2cccc3ccccc23)c2ccccc21 (stereo not drawn) — Emax (agonist; CHO-hCB2 cell membranes; 10 µM): 48.2 ± 10.9 fmol/mg
